Published values collected from several papers.
Protocols differ between the studies behind these lines. Several values in a cell are separate wells, animals, samples, runs or records. Numbers after ± are the reported error. In brackets after ≈: the same amount, converted by molar mass.

| SMILES | target or system | assay | test system | setting | scale | quantity | result |
| --- | --- | --- | --- | --- | --- | --- | --- |
| [N-]=[N+]=N[C@]1(CO)O[C@@H](n2ccc(N)nc2=O)[C@@H](F)[C@@H]1O | dengue virus 2 | viral replication, high-content imaging | Huh7.5, New Guinea C | – | – | EC50 | 0.068 µM |
| N=C(N)c1ccc(OCc2cc(COc3ccc(C(=N)N)cc3)cc(-c3ccccc3)c2)cc1 | Escherichia coli | checkerboard | BW25113 | synergy at FICI ≤0.5, unit not given, with: novobiocin | lower = stronger synergy | FICI | ≤ 0.039 |
| CC1(C)CC(=O)c2c(C(F)(F)F)nn(-c3ccc(C(N)=O)c(N[C@H]4CC[C@H](O)CC4)c3)c2C1 | human alphaherpesvirus 1 | live-cell GFP imaging | primary human keratinocytes, K26 GFP | – | – | IC50 | 0.08 µM |
| CCCCCCc1ccc(Oc2ccccc2Cl)c(O)c1 | Mycobacterium tuberculosis | – | mouse, rapid infection model, spleen | 25 mg/kg twice daily, SMEDDS formulation | – | CFU reduction | 0.78 log10 CFU |
| COC(=O)[C@H](Cc1c[nH]c2ccccc12)NCc1cc2ccccc2nc1OC | Pseudomonas aeruginosa | – | – | 2 µg/mL, without pentamidine | relative to: control | growth | 95.6% |
| CN[C@H](CC(C)C)C(=O)N[C@H]1C(=O)N[C@@H](CC(N)=O)C(=O)N[C@H]2C(=O)N[C@H]3C(=O)N[C@H](C(=O)N[C@H](C(=O)O)c4cc(O)cc(O)c4-c4cc3ccc4O)[C@H](O)c3ccc(c(Cl)c3)Oc3cc2cc(c3O[C@@H]2O[C@H](CO)[C@@H](O)[C@H](O)[C@H]2O[C@H]2C[C@](C)(N)[C@H](O)[C@H](C)O2)Oc2ccc(cc2Cl)[C@H]1O | coagulase-negative staphylococci | – | – | concentration not given, MIC ≤4 µg/mL | – | isolates inhibited | 1.5% |
| COc1cc2c(Oc3ccc4[nH]c(C)cc4c3F)ncnc2cc1OCCCN1CCCC1 | NLRP3 inflammasome (mouse) | – | mouse BMDM | 10 µM | – | inhibition | 28.9% |
| Cc1cc(C)c2cc(C(=O)NC3CCCCCCC3)[nH]c2c1 | Mycobacterium tuberculosis | – | THP-1 | – | relative to: THP-1 IC50 over MIC | selectivity index | > 764 |
| CC(=O)N1CCC(C(=O)N2CCN3C(=O)c4cc(-c5ccccc5)ccc4NC(=O)C3C2)CC1 (centres unmarked) | Caenorhabditis elegans | – | N2 | 100 µM | – | median lifespan | 29 days |
| COC(=O)[C@@H](CCSC)NCc1cc2ccccc2nc1SC | Pseudomonas aeruginosa | – | – | 64 µg/mL, with: pentamidine 50 µM | relative to: control | growth | 70.9% |
| N=C(N)c1ccc(OCCC(CCOc2ccc(C(=N)N)cc2)c2ccccc2)cc1 (centres unmarked) | Escherichia coli | checkerboard | W3110 | unit not given, with: rifampicin | lower = stronger synergy | FICI | 0.063 |
| O=C(Nc1ccc([N+](=O)[O-])cc1Cl)c1cc(Cl)ccc1O | human alphaherpesvirus 1 | – | K26 GFP, 3D skin equivalent, air-liquid | – | relative to: CC50 over IC50 | selectivity index | > 90.9 |
| CN[C@H](CC(C)C)C(=O)N[C@H]1C(=O)N[C@@H](CC(N)=O)C(=O)N[C@H]2C(=O)N[C@H]3C(=O)N[C@H](C(=O)N[C@H](C(=O)O)c4cc(O)cc(O)c4-c4cc3ccc4O)[C@H](O)c3ccc(c(Cl)c3)Oc3cc2cc(c3O[C@@H]2O[C@H](CO)[C@@H](O)[C@H](O)[C@H]2O[C@H]2C[C@](C)(N)[C@H](O)[C@H](C)O2)Oc2ccc(cc2Cl)[C@H]1O | Staphylococcus epidermidis | broth microdilution | methicillin-resistant isolates | – | – | MIC50 | 1 mg/L (≈ 0.69 µM) |
| CCCc1nn(C)c2c(=O)[nH]c(-c3cc(S(=O)(=O)N4CCN(C)CC4)ccc3OCC)nc12 | Cryptosporidium parvum | parasite growth, immunofluorescence imaging | HCT-8, Iowa | 74.1 nM | – | inhibition | -31.3% and -15.5% |
| CNC(C)C1CCC(N)C(OC2C(N)CC(N)C(OC3OCC(C)(O)C(NC)C3O)C2O)O1 (centres unmarked) | Salmonella enterica serovar Infantis | broth microdilution | clinical isolate RKI-No 277/14 | – | – | MIC | > 8 mg/L |
| CC(=O)NCCc1c[nH]c2ccc(O)cc12 | – | binding, equilibrium dialysis LC-MS | – | 5 µM, thermostabilized A2AR-BRIL construct | relative to: no-protein control, direction not given | z-scored log2 fold change | 0.594 |
| CCCN(C)c1ccc(CN2CCC(COc3cccc(Oc4ccccc4)c3)CC2)cc1 | Mycobacterium tuberculosis | – | ATCC 25618 | compound alone | – | minimum bactericidal concentration | 50 µM (≈ 22.2 µg/mL) |
| COc1ccc(-c2nc(N3CCOCC3)c3sc(CN(C)c4ncc(C(=O)NO)cn4)cc3n2)cn1 | human alphaherpesvirus 1 | – | primary human fibroblasts, K26 GFP | – | relative to: CC50 over IC50 | selectivity index | < 0.02 |

| SMILES | target or system | assay | test system | setting | scale | quantity | result |
| --- | --- | --- | --- | --- | --- | --- | --- |
| CC(C)n1ncc2c(C(=O)NCC3(C)CNC3)cc(C3CC3)nc21 | Enterovirus D68 | cytopathic effect | RD, US/IL/14-18952 | 1500 nM | – | cell protection | 97.6% and 98.9% and 98.6% |
| N=C(N)c1ccc(OCc2ccc(Br)cc2COc2ccc(C(=N)N)cc2)cc1 | Escherichia coli | checkerboard | BW25113 | synergy at FICI ≤0.5, unit not given, with: novobiocin | lower = stronger synergy | FICI | ≤ 0.039 |
| CCCCCCc1ccc(Oc2ccccc2C)c(O)c1 | Mycobacterium tuberculosis | – | mouse, rapid infection model, spleen | 50 mg/kg twice daily, SMEDDS formulation, with: rifampicin 10 mg/kg | relative to: rifampicin alone | additional CFU reduction | 1.7 log10 CFU |
| COC(=O)[C@H](Cc1c[nH]c2ccccc12)NCc1cc2ccccc2nc1SC | Pseudomonas aeruginosa | – | – | 32 µg/mL, with: pentamidine 100 µM | relative to: control | growth | 51.1% |
| CC(=O)NC[C@H]1CN(c2ccc(N3CCOCC3)c(F)c2)C(=O)O1 | Staphylococcus aureus | broth microdilution | vancomycin-resistant VRS10 | – | – | MBC | 32 µM (≈ 10.8 µg/mL) |
| NCCCN | Cryptosporidium parvum | image-based | HCT-8 | 1 mM, 24 h post-infection | relative to: PBS | relative parasite number | 1.01 ± 0.151 |
| CCn1c(=O)c(-c2cc[nH]n2)cc2c(C)nc(N)nc21 | Coxsackievirus B4 | viral replication | HeLa, CVB4-5 | concentration not given, 20 h | – | viral titre | decreased |
| Nc1nc(-c2ccccc2)nc2[nH]nc(Nc3ccc(C(F)(F)F)cc3)c12 | coxsackievirus B3 | – | 31-1-93, NMRI mice, CVB3 chronic myocarditis | oral, 100 mg/kg twice daily, day 5, dosed days 0 to 6, score scale 0 to 7 | direction not given | clinical score | 0.1 |
| C=CC(=O)N1CC/C(=C\c2ccc(F)c([N+](=O)[O-])c2)C(=O)/C(=C/c2ccc(F)c([N+](=O)[O-])c2)C1 | human alphaherpesvirus 1 | – | primary human fibroblasts, K26 GFP | – | relative to: CC50 over IC50 | selectivity index | 2.73 |
| Cc1ccc(N(c2ccc(NC(=O)CN(C)c3ccccc3N3CCCC3=O)cc2)C(C)C)cc1 | Plasmodium falciparum | – | 3D7 asexual blood stage | 10 x EC50 | – | lag phase | 24 h |
| O=c1c(-c2nc3ccccc3s2)cc2c(n1NS(=O)(=O)c1ccc(Cl)cc1)CCCC2 | Coxsackievirus B4 | viral replication, plaque reduction | BGM cells | non-toxic concentration | – | reduction | 0% |
| Cc1cccc(C)c1N(CC(=O)Nc1ccc(-c2ncon2)cc1)C(=O)C1CCS(=O)(=O)CC1 | human alphaherpesvirus 1 | live-cell GFP imaging | primary human fibroblasts, K26 GFP | – | – | IC50 | 0.1 µM |
| NCCS(=O)(=O)O | – | binding, equilibrium dialysis LC-MS | – | 5 µM, thermostabilized A2AR-BRIL construct | relative to: no-protein control, direction not given | z-scored log2 fold change | 0.201 |
| Cc1nc(N(C)C(=O)Cc2ccc(-c3ccccn3)cc2)sc1S(N)(=O)=O | human alphaherpesvirus 1 | – | primary human fibroblasts, K26 GFP | CC50 capped at 10.00 µM | relative to: CC50 over IC50 | selectivity index | > 66.7 |
| COC(=O)[C@@H](N)Cc1ccc(O)cc1 | Cryptosporidium parvum | image-based | HCT-8 | 1 mM, 24 h post-infection | relative to: PBS | relative parasite number | 0.853 ± 0.06 |
| O=C(/C=C\n1cnc(-c2cc(C(F)(F)F)cc(C(F)(F)F)c2)n1)NNc1ccccn1 | human alphaherpesvirus 1 | live-cell GFP imaging | primary human keratinocytes, K26 GFP | – | – | IC50 | 1.76 µM |
| O=Nc1c(-c2c(O)[nH]c3ccccc23)[nH]c2ccccc12 | NLRP3 inflammasome (mouse) | – | mouse BMDM | 10 µM | – | inhibition | -19.9% |

Excerpt of the above:
| SMILES | target or system | assay | test system | setting | scale | quantity | result |
| --- | --- | --- | --- | --- | --- | --- | --- |
| NCCS(=O)(=O)O | – | binding, equilibrium dialysis LC-MS | – | 5 µM, thermostabilized A2AR-BRIL construct | relative to: no-protein control, direction not given | z-scored log2 fold change | 0.201 |
| COC(=O)[C@@H](CCSC)NCc1cc2ccccc2nc1SC | Pseudomonas aeruginosa | – | – | 64 µg/mL, with: pentamidine 50 µM | relative to: control | growth | 70.9% |
| CC(C)n1ncc2c(C(=O)NCC3(C)CNC3)cc(C3CC3)nc21 | Enterovirus D68 | cytopathic effect | RD, US/IL/14-18952 | 1500 nM | – | cell protection | 97.6% and 98.9% and 98.6% |
| [N-]=[N+]=N[C@]1(CO)O[C@@H](n2ccc(N)nc2=O)[C@@H](F)[C@@H]1O | dengue virus 2 | viral replication, high-content imaging | Huh7.5, New Guinea C | – | – | EC50 | 0.068 µM |
| CCCCCCc1ccc(Oc2ccccc2C)c(O)c1 | Mycobacterium tuberculosis | – | mouse, rapid infection model, spleen | 50 mg/kg twice daily, SMEDDS formulation, with: rifampicin 10 mg/kg | relative to: rifampicin alone | additional CFU reduction | 1.7 log10 CFU |
| Nc1nc(-c2ccccc2)nc2[nH]nc(Nc3ccc(C(F)(F)F)cc3)c12 | coxsackievirus B3 | – | 31-1-93, NMRI mice, CVB3 chronic myocarditis | oral, 100 mg/kg twice daily, day 5, dosed days 0 to 6, score scale 0 to 7 | direction not given | clinical score | 0.1 |
